Assay results from different studies.
Numbered parts are unrelated; each lists some results of a single study.

Series 1 — method: protein-binding microarray; form: double-stranded DNA, one strand shown; medium: in vitro; concentration: 940 nM top; notes: 60-bp whole probe; added: salmon DNA 0.4 mg/ml; baseline: random background probes; direction: higher = stronger binding
Target: Interferon regulatory factor 5, full length, phosphomimetic (IRF5, Homo sapiens, UniProt Q13568-2, residues 1-514, S451D/S453D/S456D/S462D)
Under “fitted relative affinity”, `GCCTAGCACTCAGGGCTCTTCTCTGAAACTGTGCTAGTCTTGATTCGCTTGACGCTGCTG` is recorded as -0.0896 z-score.
`GCCTAGCACGAATCTCTCATGTTACATTTGTGCTAGGTCTTGATTCGCTTGACGCTGCTG`: “fitted relative affinity” 1.3 z-score.
`GCCTAGCACGACGGTTTCGTGTTTCGGGACGTGCTAGTCTTGATTCGCTTGACGCTGCTG`: “fitted relative affinity” 6.01 z-score.
Under “fitted relative affinity”, `GCCTAGCACTTAGGTATCGGGTATCGTTTAGTGCTAGTCTTGATTCGCTTGACGCTGCTG` is recorded as 6.62 z-score.

Series 2 — effect on: enzyme activity; mode: inhibitor; concentration: 20 µM
Target: Replicase polyprotein 1ab, polymerase (rep, Severe acute respiratory syndrome coronavirus 2, UniProt P0DTD1)
`CC(=O)N(O)CCCCCNC(=O)CCC(=O)N(O)CCCCCNC(=O)CCC(=O)N(O)CCCCCN` gave an inhibition of 1.18%.
`Cc1cc(N2CCOCC2)cc2[nH]c(-c3c(NC[C@@H](O)c4cccc(Cl)c4)cc[nH]c3=O)nc12` has an inhibition of 4.04%.
With `C[C@H](NC(=O)C(C)(C)Oc1ccc(C(F)(F)F)cn1)[C@@H](Cc1ccc(Cl)cc1)c1cccc(C#N)c1` the inhibition was -2.01%.
The inhibition of `c1cncc(CN2CCC(n3ncc4c(N5CCOCC5)nc(-c5ccc6[nH]ccc6c5)nc43)CC2)c1` is reported as -4.85%.
`C1=Cc2cccc(OCC3CNCCO3)c2C1` (centres unmarked) has an inhibition of -0.55%.
`O=C(Cn1ccnc1[N+](=O)[O-])NCc1ccccc1` has an inhibition of -0.05%.
The inhibition of `O=C(O)CCCCC(CCSCc1ccccc1)SCc1ccccc1` (centres unmarked) is reported as 4%.
`Nc1nc(F)nc2c1ncn2[C@@H]1O[C@H](CO)[C@@H](O)[C@@H]1O` has an inhibition of -19.7%.
The inhibition of `C[C@@H]1CN(CCCn2c3ccccc3c3ccccc32)C[C@H](C)N1` is reported as 1.68%.
`COC1=CC(=O)C[C@@H](C)[C@]12Oc1c(Cl)c(OC)cc(OC)c1C2=O` gave an inhibition of 3.41%.

Series 3 — method: protein binding microarray; form: double-stranded DNA, one strand shown; medium: in vitro; concentration: not given; baseline: not given; direction: higher = stronger binding
Target: Histone acetyltransferase KAT6A, winged helix 1, GST fusion (KAT6A, Homo sapiens, UniProt Q92794, residues 1-85)
Notes: 8-mer, flanks averaged, mean of 2 arrays, mostly near background
Target sequence (chain): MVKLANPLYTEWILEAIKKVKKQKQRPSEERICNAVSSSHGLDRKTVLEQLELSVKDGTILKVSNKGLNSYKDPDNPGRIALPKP
The E-score of `CGTAAAGA` is reported as 0.147.
The E-score of `ATTTTAGG` is reported as -0.153.
With `AGCTCTAC` the E-score was -0.104.
The E-score of `AGGATGGG` is reported as -0.269.
For `CATTGTTA`, the E-score was -0.208.
`CGCTAGGC` gave an E-score of 0.199.
`TACTTCTA` gave an E-score of -0.133.
For `CGCGCTCA`, the E-score was 0.31.

Mixed results
`CC(C)(C)NCC(O)c1cc(O)cc(O)c1` (centres unmarked) gave a GFP-positive cells of 62.9% (HEK-293T/ACE2; pseudovirus infection; VSV pseudotyped with SARS-CoV-2 spike; 10 µM, 16 h; baseline: vehicle-treated).
`COC(=O)c1ccc2c(c1)NC(=O)/C2=C(\Nc1ccc(N(C)C(=O)CN2CCN(C)CC2)cc1)c1ccccc1` has a cell number of 104% (HEK-293T-ACE2; concentration not given; baseline: vehicle).
`CN(C)C(=O)Oc1cccc([N+](C)(C)C)c1` gave a GFP-positive cells of 57.9% (HEK-293T/ACE2; pseudovirus infection; VSV pseudotyped with SARS-CoV-2 spike; 10 µM, 16 h; baseline: vehicle-treated).
For `Nc1nc2[nH]cc(CCc3ccc(C(=O)N[C@@H](CCC(=O)[O-])C(=O)[O-])cc3)c2c(=O)[nH]1.Nc1nc2[nH]cc(CCc3ccc(C(=O)N[C@@H](CCC(=O)[O-])C(=O)[O-])cc3)c2c(=O)[nH]1.O.O.O.O.O.[Na+].[Na+].[Na+].[Na+]`, the cell number was 89.7% (HEK-293T-ACE2; concentration not given; baseline: vehicle).

Excerpt of the above (series 2):
`COC1=CC(=O)C[C@@H](C)[C@]12Oc1c(Cl)c(OC)cc(OC)c1C2=O` gave an inhibition of 3.41%.
The inhibition of `c1cncc(CN2CCC(n3ncc4c(N5CCOCC5)nc(-c5ccc6[nH]ccc6c5)nc43)CC2)c1` is reported as -4.85%.
`Nc1nc(F)nc2c1ncn2[C@@H]1O[C@H](CO)[C@@H](O)[C@@H]1O` has an inhibition of -19.7%.
